Measurements of several laboratories.
Lines come from different studies, so protocols differ.
rep main protease: Replicase polyprotein 1ab, main protease (rep, Severe acute respiratory syndrome coronavirus 2, UniProt P0DTD1)

Molecule | tested on | test | test system | setting | scale | endpoint | value
Cn1cnc(Cn2c(=O)[nH]/c(=N\c3cc4cn(C)nc4cc3Cl)n(Cc3cc(F)c(F)cc3F)c2=O)n1 | – | – | human, moderate renal impairment, plasma | oral, 375 mg single dose | – | AUC(0-inf) | 1480 µg·h/mL
RVAGDSGFAAYSRYR | human CD4 T cells | AIM | peptide | – | – | responding donors | 15%
CCOC(=O)[C@H](Cc1ccccc1)NC(=O)c1cc(Cl)c(OCCN2CCN(C)CC2)c(Cl)c1O.Cl.Cl | rep main protease | viral replication, mKate2 reporter | SARS-CoV-2 | 20 µM | – | inhibition | -0.61%
CC[C@H](C)[C@H](NC(=O)[C@H](CC(C)C)NC(=O)[C@H](Cc1c[nH]c2ccccc12)NC(=O)[C@H](CCC(N)=O)NC(=O)[C@@H](NC(=O)[C@H](Cc1ccccc1)NC(=O)[C@H](C)NC(=O)[C@H](CCCCNC(=O)COCCOCCNC(=O)COCCOCCNC(=O)CC[C@H](NC(=O)CCCCCCCCCCCCCCCCCCC(=O)O)C(=O)O)NC(=O)[C@H](CCC(N)=O)NC(=O)[C@H](C)NC(=O)[C@@H](NC(=O)[C@H](CCCCN)NC(=O)[C@H](CC(=O)O)NC(=O)[C@H](CC(C)C)NC(=O)C(C)(C)NC(=O)[C@@H](NC(=O)[C@H](CO)NC(=O)[C@H](Cc1ccc(O)cc1)NC(=O)[C@H](CC(=O)O)NC(=O)[C@H](CO)NC(=O)[C@@H](NC(=O)[C@H](Cc1ccccc1)NC(=O)[C@@H](NC(=O)CNC(=O)[C@H](CCC(=O)O)NC(=O)C(C)(C)NC(=O)[C@@H](N)Cc1ccc(O)cc1)[C@@H](C)O)[C@@H](C)O)[C@@H](C)CC)[C@@H](C)CC)C(C)C)C(=O)N[C@@H](C)C(=O)NCC(=O)NCC(=O)N1CCC[C@H]1C(=O)N[C@@H](CO)C(=O)N[C@@H](CO)C(=O)NCC(=O)N[C@@H](C)C(=O)N1CCC[C@H]1C(=O)N1CCC[C@H]1C(=O)N1CCC[C@H]1C(=O)N[C@@H](CO)C(N)=O | – | – | patients with type 2 diabetes | 5/5/10/15 mg escalating, day 29, least-squares mean | reference: baseline | change in systolic blood pressure | -5.32 mmHg
Nc1ncnc2c([C@@H]3N[C@H](CO)[C@@H](O)[C@H]3O)c[nH]c12 | Marburg virus | viral replication, antibody staining | HeLa, Musoke | 100 µM, 1 h | – | infected cells | 0.4%
LPQGFSAL | – | AIM | peptide, CD8+ T cells from PBMC, human donors | HLA-B*08:01 restricted, unit not given | reference: positive over tested donors | frequency of responding donors | 40
Cc1cccc(C)c1OCC(=O)N[C@@H](Cc1ccccc1)[C@@H](O)C[C@H](Cc1ccccc1)NC(=O)[C@H](C(C)C)N1CCCNC1=O | rep main protease | reporter gene (mKate2), inhibitor | – | 20 µM | – | inhibition | -0.699%

For quick reference, copied from above:
Molecule | tested on | test | test system | setting | scale | endpoint | value
Cc1cccc(C)c1OCC(=O)N[C@@H](Cc1ccccc1)[C@@H](O)C[C@H](Cc1ccccc1)NC(=O)[C@H](C(C)C)N1CCCNC1=O | rep main protease | reporter gene (mKate2), inhibitor | – | 20 µM | – | inhibition | -0.699%
